Experimental data from different studies.
Every numbered part comes from another study and shows a few of its results, in no order. Several values in a cell are separate wells, animals, samples, runs or records. Values after ≈ are worked out from the molar mass of the structure shown.

Set 1
Structure (SMILES): Cc1ncsc1-c1ccc(C(CO)NC(=O)C2CC(O)CN2C(=O)C(C(C)C)n2cc(-c3ccc(COc4c(-c5c(C)c(F)cc6[nH]ncc56)c(C5CC5)cc5c(N6CC7CC6CN7)nc(OC6CCOCC6)nc45)cc3)nn2)cc1 (stereo not drawn)
system	conditions	body weight
mouse, PK-59 xenograft	1 mg/kg, day 17	26.3 g and 24.8 g and 31.5 g
mouse, GP5d xenograft	30 mg/kg twice weekly, day 14	25 g
mouse, HT-29 xenograft	sc, 30 mg/kg once daily, day 6	18.4 g and 20.5 g and 17.2 g and 17.5 g and 20.8 g
mouse, GP5d xenograft	30 mg/kg once weekly, day 0	27.8 g and 22.4 g and 24 g
mouse, PK-59 xenograft	subcutaneous, 30 mg/kg once daily, day 11	18.8 g and 22.2 g and 20.6 g and 19.6 g and 18.7 g
mouse, PK-59 xenograft	0.3 mg/kg, day 14	24.8 g and 25.4 g and 25.2 g
mouse, PK-59 xenograft	subcutaneous, 30 mg/kg once daily, day 22	19.8 g and 20 g and 18.6 g and 19.5 g and 17.9 g
mouse, lung LXFA sample A PDX	10 mg/kg twice weekly, day 22	29.8 g and 27.7 g and 26.5 g and 29.9 g
mouse, lung LXFA sample A PDX	30 mg/kg twice weekly, day 2	28.6 g
mouse, PK-1 xenograft	30 mg/kg twice weekly, day 7	24.8 g

Set 2 — cell line: Gaucher fibroblasts L444P/L444P; technique: 4-MUG hydrolysis, cell lysate; concentration: 1 µM; baseline: DMSO
Compound	GCase activity
Cc1ccc(Nc2nc(NCCN3CCOCC3)nc(N3CCOCC3)n2)cc1	108% and 109% and 111% and 115% and 97.1%
Ic1ccc(Nc2nc(NCCN3CCOCC3)nc(N3CCNCC3)n2)cc1	106% and 102% and 104% and 109%
Ic1ccc(Nc2nc(NCCN3CCOCC3)nc(N3CCCC3)n2)cc1	98.4% and 90% and 97.9% and 101% and 102%
CCN(CC)c1nc(NCCN2CCOCC2)nc(Nc2ccc(I)cc2)n1	95.5% and 88.2% and 96.1% and 106% and 91.5%
Ic1ccc(Nc2nc(NCCN3CCCCC3)nc(N3CCOCC3)n2)cc1	114% and 113% and 109% and 118% and 102% and 110%
Fc1ccc(Nc2nc(NCCN3CCOCC3)nc(N3CCOCC3)n2)cc1	100% and 104% and 96.9% and 91.2% and 94.9% and 98.3%
COc1ccc(Nc2nc(NCCN3CCOCC3)nc(N3CCOCC3)n2)cc1	97% and 99.9% and 95.2% and 93.2% and 95.6% and 103%
c1ccc(Nc2nc(NCCN3CCOCC3)nc(N3CCOCC3)n2)cc1	94.5% and 86.6% and 98.7% and 103% and 92.8% and 99.7%

Set 3 — observed: thermal unfolding; technique: differential scanning fluorimetry; concentration: 5.5 µM; direction: higher = more unfolded
SMILES: C[C@@H]1CN(c2ccc(-c3cc(C(=O)NCCOCCOCCOCCOCCNC(=O)Cn4cc(-c5[nH]cc(C(=O)N[C@@H](CC(N)=O)c6ccc(F)c(Cl)c6)c5-c5ccc(Cl)cc5F)cn4)ccc3F)cc2NC(=O)c2c[nH]c(=O)cc2C(F)(F)F)C[C@H](C)N1C
WDR5: WD repeat-containing protein 5 (WDR5, Homo sapiens, UniProt P61964)
DCAF1: DDB1- and CUL4-associated factor 1 (DCAF1, Homo sapiens, UniProt Q9Y4B6)
Chain of UniProt Q9Y4B6 (whole entry, looked up): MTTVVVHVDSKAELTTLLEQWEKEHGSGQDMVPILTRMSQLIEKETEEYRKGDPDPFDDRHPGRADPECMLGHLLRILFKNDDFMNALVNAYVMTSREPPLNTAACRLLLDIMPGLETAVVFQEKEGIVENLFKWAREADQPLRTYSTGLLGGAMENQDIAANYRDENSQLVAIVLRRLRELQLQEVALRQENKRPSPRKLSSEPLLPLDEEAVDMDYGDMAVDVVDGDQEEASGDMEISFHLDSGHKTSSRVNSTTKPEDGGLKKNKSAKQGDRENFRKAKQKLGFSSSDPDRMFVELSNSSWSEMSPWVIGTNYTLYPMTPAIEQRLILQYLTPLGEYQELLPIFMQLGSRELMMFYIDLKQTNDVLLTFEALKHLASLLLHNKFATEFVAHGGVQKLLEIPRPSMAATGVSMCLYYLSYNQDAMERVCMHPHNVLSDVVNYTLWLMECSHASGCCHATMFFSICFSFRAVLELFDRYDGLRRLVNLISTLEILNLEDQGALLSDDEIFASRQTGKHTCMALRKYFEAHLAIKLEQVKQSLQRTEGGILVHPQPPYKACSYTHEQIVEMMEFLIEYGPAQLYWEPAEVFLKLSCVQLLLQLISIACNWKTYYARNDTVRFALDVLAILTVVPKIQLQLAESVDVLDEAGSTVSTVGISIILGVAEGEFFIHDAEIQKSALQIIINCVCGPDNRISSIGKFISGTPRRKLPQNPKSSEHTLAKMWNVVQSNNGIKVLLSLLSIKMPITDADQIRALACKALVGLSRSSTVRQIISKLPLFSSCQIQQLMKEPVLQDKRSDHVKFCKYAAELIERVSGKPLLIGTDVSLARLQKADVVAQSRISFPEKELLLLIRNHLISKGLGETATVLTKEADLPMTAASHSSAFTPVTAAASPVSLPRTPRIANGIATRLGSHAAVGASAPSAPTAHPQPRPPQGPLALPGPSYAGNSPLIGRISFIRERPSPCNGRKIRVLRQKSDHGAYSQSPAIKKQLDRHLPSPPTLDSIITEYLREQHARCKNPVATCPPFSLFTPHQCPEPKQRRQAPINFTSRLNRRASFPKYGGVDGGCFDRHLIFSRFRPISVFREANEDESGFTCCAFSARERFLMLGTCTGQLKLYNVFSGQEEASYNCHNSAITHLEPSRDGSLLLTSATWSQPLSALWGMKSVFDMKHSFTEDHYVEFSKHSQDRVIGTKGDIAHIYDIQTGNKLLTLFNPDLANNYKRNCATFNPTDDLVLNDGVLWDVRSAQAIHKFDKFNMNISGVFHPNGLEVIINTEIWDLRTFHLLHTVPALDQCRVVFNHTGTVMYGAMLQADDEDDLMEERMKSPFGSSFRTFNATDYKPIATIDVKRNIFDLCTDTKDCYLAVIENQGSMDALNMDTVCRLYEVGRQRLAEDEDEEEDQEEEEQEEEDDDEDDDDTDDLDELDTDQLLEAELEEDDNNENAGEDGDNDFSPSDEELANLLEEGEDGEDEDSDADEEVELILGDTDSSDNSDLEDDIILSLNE
target	conditions	SYPRO Orange fluorescence [a.u.]
WDR5	79.21 °C	20800
DCAF1	70.61 °C	53800
WDR5	53.01 °C	14400
WDR5	49.4 °C	14500
WDR5	63.81 °C	8290
DCAF1	55.81 °C	21300
DCAF1	62.81 °C	50800
WDR5	25.8 °C	14700
WDR5	42.2 °C	14200
DCAF1	65.21 °C	56100
WDR5	27.4 °C	14800

Further values, each from its own experiment
SMILES	system	conditions	quantity	value
CC[C@@]1(c2cccc(C(F)(F)F)c2)C2=C(Nc3n[nH]cc31)[C@H](F)C(C)(C)CC2=O (single isomer, unassigned)	aqueous buffer	pH 6.8	solubility	22.6 µg/mL (≈ 55.5 µM)

Some of these lines once more (set 3):
target	conditions	SYPRO Orange fluorescence [a.u.]
DCAF1	55.81 °C	21300
WDR5	63.81 °C	8290
